# Experimental data collected from several papers.
# Compare with care: the assays were run in different laboratories. “And” joins repeats or separate records; there may be more than shown. ± gives the spread as reported.
# Uncharacterized hydrolase SAUSA300_2518: Uncharacterized hydrolase SAUSA300_2518 (Staphylococcus aureus, UniProt Q2FDS6)
# lasR: Transcriptional activator protein LasR (lasR, Pseudomonas aeruginosa, UniProt P25084)
# Oprm1: Mu-type opioid receptor (Oprm1, Rattus norvegicus, UniProt P33535)
# Sequence of UniProt P33535 (whole entry, looked up): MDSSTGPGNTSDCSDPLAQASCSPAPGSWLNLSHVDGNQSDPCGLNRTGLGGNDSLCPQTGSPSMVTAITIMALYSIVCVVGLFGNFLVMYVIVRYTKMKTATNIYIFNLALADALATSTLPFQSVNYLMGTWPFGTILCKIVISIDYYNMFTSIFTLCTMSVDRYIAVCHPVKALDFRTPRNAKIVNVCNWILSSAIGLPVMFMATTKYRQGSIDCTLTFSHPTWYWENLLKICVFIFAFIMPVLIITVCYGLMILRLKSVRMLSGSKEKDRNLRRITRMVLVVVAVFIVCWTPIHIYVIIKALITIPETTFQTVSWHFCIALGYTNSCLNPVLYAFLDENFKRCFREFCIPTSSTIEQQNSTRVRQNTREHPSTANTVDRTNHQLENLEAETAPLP
# KEAP1: Kelch-like ECH-associated protein 1 (KEAP1, Homo sapiens, UniProt Q14145)
# Sequence of UniProt Q14145 (whole entry, looked up): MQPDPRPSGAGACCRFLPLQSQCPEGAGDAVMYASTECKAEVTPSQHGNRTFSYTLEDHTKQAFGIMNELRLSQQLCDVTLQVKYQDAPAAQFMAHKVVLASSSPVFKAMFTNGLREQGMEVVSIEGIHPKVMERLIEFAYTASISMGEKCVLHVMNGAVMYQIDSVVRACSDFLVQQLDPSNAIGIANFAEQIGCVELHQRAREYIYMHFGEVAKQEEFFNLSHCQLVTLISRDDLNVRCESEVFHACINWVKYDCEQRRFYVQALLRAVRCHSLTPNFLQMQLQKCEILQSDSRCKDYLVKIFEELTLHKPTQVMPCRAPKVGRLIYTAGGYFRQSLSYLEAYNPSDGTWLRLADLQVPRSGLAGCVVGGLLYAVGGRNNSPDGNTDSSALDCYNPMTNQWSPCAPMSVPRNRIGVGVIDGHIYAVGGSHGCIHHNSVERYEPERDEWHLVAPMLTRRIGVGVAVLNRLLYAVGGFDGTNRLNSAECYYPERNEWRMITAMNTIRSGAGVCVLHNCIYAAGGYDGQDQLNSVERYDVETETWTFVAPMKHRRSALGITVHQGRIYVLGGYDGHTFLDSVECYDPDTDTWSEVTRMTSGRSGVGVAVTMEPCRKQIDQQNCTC
# sdiA: Regulatory protein SdiA (sdiA, Escherichia coli, UniProt P07026)
# Sequence of UniProt Q9ET22 (whole entry, looked up): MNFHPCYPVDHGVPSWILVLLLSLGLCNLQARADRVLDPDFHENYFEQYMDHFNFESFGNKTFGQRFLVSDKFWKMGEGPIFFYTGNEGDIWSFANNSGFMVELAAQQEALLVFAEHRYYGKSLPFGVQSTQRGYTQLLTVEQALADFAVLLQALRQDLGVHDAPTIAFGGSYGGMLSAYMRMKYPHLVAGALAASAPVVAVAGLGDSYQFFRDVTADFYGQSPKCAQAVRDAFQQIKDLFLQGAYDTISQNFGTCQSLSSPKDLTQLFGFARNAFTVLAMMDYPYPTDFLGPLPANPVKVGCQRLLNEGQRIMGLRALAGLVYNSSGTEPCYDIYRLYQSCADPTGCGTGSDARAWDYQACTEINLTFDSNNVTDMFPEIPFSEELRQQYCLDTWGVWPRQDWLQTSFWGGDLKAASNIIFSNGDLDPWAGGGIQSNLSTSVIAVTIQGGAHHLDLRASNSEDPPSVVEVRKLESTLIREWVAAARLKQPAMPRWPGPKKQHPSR
# Sequence of UniProt P07026 (whole entry, looked up): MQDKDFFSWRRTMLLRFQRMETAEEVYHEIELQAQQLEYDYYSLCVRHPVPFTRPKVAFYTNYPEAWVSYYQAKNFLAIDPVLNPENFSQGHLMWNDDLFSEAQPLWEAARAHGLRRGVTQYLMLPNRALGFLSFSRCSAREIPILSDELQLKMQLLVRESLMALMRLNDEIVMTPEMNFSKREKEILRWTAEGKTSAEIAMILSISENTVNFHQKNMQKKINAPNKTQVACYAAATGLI
# Sequence of UniProt Q9ULW8 (whole entry, looked up): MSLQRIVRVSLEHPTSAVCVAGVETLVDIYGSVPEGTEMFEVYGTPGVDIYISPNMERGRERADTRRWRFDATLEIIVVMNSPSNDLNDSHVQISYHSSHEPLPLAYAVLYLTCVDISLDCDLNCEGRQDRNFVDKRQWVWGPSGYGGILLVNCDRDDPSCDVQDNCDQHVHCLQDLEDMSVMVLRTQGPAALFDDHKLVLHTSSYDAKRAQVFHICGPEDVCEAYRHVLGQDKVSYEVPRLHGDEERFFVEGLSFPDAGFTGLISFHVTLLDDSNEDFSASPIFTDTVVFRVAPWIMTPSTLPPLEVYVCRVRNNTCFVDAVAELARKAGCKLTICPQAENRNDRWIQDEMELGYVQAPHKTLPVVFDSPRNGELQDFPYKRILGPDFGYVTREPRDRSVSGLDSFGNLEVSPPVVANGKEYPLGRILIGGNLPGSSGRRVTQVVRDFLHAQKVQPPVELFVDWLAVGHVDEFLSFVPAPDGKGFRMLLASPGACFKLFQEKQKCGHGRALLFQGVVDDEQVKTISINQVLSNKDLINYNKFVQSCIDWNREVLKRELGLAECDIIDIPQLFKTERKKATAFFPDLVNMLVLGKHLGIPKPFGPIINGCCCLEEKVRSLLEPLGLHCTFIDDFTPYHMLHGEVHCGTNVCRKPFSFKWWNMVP
# Sequence of UniProt P54764 (whole entry, looked up): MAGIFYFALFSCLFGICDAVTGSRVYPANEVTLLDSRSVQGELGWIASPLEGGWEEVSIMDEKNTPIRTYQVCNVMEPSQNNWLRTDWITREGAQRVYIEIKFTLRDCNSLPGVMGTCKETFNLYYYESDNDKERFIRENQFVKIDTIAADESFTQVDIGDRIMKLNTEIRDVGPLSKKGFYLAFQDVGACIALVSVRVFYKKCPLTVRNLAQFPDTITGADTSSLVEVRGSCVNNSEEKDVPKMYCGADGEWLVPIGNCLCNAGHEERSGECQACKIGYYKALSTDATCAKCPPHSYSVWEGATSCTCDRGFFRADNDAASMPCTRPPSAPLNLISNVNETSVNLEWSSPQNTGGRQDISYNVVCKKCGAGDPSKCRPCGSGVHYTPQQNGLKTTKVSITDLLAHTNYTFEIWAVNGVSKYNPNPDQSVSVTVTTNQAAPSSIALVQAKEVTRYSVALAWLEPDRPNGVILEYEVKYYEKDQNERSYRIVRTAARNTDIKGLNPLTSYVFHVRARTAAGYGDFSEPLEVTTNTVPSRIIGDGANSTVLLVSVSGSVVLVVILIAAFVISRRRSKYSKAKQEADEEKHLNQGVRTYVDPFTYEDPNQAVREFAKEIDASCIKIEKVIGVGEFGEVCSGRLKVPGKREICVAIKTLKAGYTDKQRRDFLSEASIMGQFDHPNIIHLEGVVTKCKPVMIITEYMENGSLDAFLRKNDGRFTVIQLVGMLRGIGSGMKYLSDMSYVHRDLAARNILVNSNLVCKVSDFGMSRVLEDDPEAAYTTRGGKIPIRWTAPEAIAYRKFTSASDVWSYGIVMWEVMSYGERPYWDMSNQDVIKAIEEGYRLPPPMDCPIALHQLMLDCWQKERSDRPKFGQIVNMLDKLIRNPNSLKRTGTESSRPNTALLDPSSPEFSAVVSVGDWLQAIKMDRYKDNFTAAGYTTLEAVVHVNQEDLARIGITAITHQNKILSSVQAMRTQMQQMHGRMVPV
# Sequence of UniProt Q6NUM9 (whole entry, looked up): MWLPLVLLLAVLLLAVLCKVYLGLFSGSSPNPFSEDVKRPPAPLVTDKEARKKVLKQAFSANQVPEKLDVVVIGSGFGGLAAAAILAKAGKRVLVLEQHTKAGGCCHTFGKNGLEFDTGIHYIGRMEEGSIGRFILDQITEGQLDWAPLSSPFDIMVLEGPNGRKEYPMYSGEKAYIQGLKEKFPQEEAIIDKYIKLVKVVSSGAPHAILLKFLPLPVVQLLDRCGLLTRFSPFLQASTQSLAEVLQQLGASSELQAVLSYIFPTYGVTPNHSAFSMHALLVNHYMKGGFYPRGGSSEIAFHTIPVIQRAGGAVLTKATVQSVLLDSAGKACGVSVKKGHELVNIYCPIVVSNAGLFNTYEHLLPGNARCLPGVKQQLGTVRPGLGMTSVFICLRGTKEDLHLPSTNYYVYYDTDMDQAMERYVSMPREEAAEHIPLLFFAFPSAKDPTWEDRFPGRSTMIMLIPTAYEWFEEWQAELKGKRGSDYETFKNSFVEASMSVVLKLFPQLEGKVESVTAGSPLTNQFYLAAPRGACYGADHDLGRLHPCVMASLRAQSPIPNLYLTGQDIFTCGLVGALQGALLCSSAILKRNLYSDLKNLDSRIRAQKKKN
Structure (SMILES),target,test,test system,setting,scale,measurement,value
O=S(=O)(F)c1cccc2c1OCC2,Uncharacterized hydrolase SAUSA300_2518,"enzyme activity, inhibitor, fluorogenic substrate",,0.05 µM,,remaining activity,112%
O=C(CCCc1ccccc1)NC1CCOC1=O (centres unmarked),lasR,"reporter gene, agonist",Escherichia coli JLD271,"10 µM, pSC11 and pJN105L plasmids",baseline: OdDHL at same concentration,agonist activity,-1%
CCn1nc(Cl)c2c1-c1cnc(N)c(c1)O[C@H](C)c1cc(F)ccc1-c1nn(C)cc1C2,"Ephrin type-A receptor 4 (EPHA4, Homo sapiens, UniProt P54764)","kinase activity, inhibitor",,,baseline: IC50 EPHA4 over IC50 ALK,selectivity ratio,180 fold
CCNC(=S)NN=Cc1c2ccccc2cc2ccccc12.Cc1ccc(C(C)C)cc1.[Cl-].[Cl-].[Ru+2],"Albumin (ALB, Homo sapiens, UniProt P02768)",modified Stern-Volmer,,301 K,,binding constant,9.82 ± 3.42 10⁴ M⁻¹
C#CCCCCOc1ccc2c(c1)CCCN2C(=O)CCl,"All-trans-retinol 13,14-reductase (RETSAT, Homo sapiens, UniProt Q6NUM9)","mass spectrometry profiling, item: RETSAT",H460 cell lysate,"100 µM over 10 µM, UniProt Q6NUM9",baseline: high over low concentration,reactivity ratio,1.44
CCO[C@H]1[C@H](O)[C@@H](N)[C@@H](O[C@H]2[C@H](O[C@@H]3O[C@H](CO)[C@@H](O[C@H]4O[C@@H](CN)[C@@H](O)[C@H](O)[C@H]4N)[C@H]3O)[C@@H](O)[C@H](N)C[C@@H]2N)O[C@@H]1CO,"Amine oxidase [flavin-containing] A (Maoa, Rattus norvegicus, UniProt P21396)",radioligand binding,,"10 µM, 1% DMSO",,specific binding,4%
C[C@@H](O)[C@@H]1CN([C@H](Cc2ccc3ccccc3c2)CN2CCC[C@H]2CN2CCNC[C@@H]2CO)CCN1CCC12CC3CC(CC(C3)C1)C2,Oprm1,radioligand binding,rat brain membranes,"500 nM, pH 7.5, 25 °C, together with: 0.87 nM [3H]DAMGO",,remaining binding,102 ± 8.67%
CN(C)CCCSC(=S)N1CCN(C(=O)/C=C/c2coc3ccccc3c2=O)CC1,"Nucleoprotein (N, Tomato spotted wilt virus, UniProt P25999, Y184A)","binding, microscale thermophoresis",,62.5 µM,dose series,MST response,845 a.u.
CC(C)[C@@H]1NC(=O)[C@H](CC(N)=O)NC(=O)CNC(=O)[C@H](CC(N)=O)NC(=O)[C@H](C)NC(=O)[C@H](CC(=O)O)NC(=O)[C@H]([C@@H](C)O)NC(=O)[C@H](CCC(=O)O)NC(=O)CNC(=O)[C@H]([C@@H](C)O)NC(=O)[C@H](CCC(=O)O)NC(=O)[C@H](CCC(=O)O)NC(=O)[C@H](CC(=O)O)NC1=O,KEAP1,"Keap1-Nrf2 binding, inhibitor, competitive FP",,"0.0015 µM, 30 min, together with: Nrf2 peptide probe",lower = stronger inhibition,fluorescence polarization,1.04 a.u. and 1.09 a.u.
O=C(CCCOc1cccc(Br)c1)N[C@H]1CCSC1=O,lasR,"reporter gene, agonist",,,baseline: EC50 PAO-JP2 over E. coli JLD271,potency ratio,320
Cc1ccc(OS(=O)(=O)F)c(C(=O)Nc2ccncc2)c1,Uncharacterized hydrolase SAUSA300_2518,"enzyme activity, inhibitor, fluorogenic substrate",,1 µM,,remaining activity,74.8% and 69.1% and 68.4%
C[C@@H](O)[C@@H]1CN([C@@H](CC2CCCCC2)CN2CCC[C@H]2CN2CCNC[C@@H]2Cc2ccc3ccccc3c2)CCN1CCCC1CCCC1,Oprm1,radioligand binding,rat brain membranes,"500 nM, pH 7.5, 25 °C, together with: 0.87 nM [3H]DAMGO",,remaining binding,103 ± 7.7%
CN(C)[C@H]1C[C@@]23CC[C@@]4(O2)C(=CC[C@]2(C)[C@@H](c5ccc6ccncc6c5)CC[C@H]24)C=C3[C@@H](O)[C@@H]1O,"Dual specificity mitogen-activated protein kinase kinase 7 (MAP2K7, Homo sapiens, UniProt O14733)","ATP probe labelling, inhibitor, KiNativ profiling",,1 µM,,inhibition,6.4%
CCCCCCC(=O)N[C@H]1CCOC1=O,sdiA,,,,,Emax,78.2%
CCc1nnc(-c2c(OC)cc(-c3cnc4cc(-c5cnn(C)c5)ccn34)cc2OC)o1,"Prostaglandin G/H synthase 1 (PTGS1, Homo sapiens, UniProt P23219)",radioligand binding,,"10 µM, SafetyScreen44 replicate 2",lower = stronger displacement,remaining binding,145%
O=C(CCc1ccc(Br)cc1)N[C@H]1CCOC1=O,lasR,"plasI-LVAgfp reporter, agonist",,,baseline: pump-active over pump-mutant,EC50 ratio,> 8.3
C[C@H](NCc1ccc(-c2ccc(C(F)(F)F)cc2)cc1)C(N)=O,"Casein kinase I isoform delta (CSNK1D, Homo sapiens, UniProt P48730)","cell-free assay, competition with immobilised ligand",,1 µM,,inhibition,0%
O=C1NC(=O)c2c1c1cc(F)c[n+]3c1c1c2c2cc(O)ccc2[n]1[Ru-4]312([N]=C=S)[S+]3CC[S+]1CC[S+]2CC3 (centres unmarked),"Calcium/calmodulin-dependent protein kinase type IV (CAMK4, Homo sapiens, UniProt Q16566)",enzyme activity,,"100 nM, human enzyme, together with: 10 µM ATP",baseline: untreated,remaining activity,11%
CCCC[C@H]1CNCCN1C[C@@H]1CCCN1C[C@@H](Cc1ccc2ccccc2c1)N1CCN(CCc2ccc(Cl)c(Cl)c2)[C@H]([C@H](C)CC)C1,Oprm1,radioligand binding,rat brain membranes,"500 nM, pH 7.5, 25 °C, together with: 0.87 nM [3H]DAMGO",,remaining binding,104 ± 11.6%
CCOC(=O)[C@@H]1Cc2c(cc([N+](=O)[O-])cc2[N+](=O)[O-])[C@H](O)[C@]12C(=O)Nc1ccc(Br)cc12,"Cyclin-dependent kinase 3 (CDK3, Homo sapiens, UniProt Q00526)",KINOMEscan,,100 nM,baseline: DMSO control,remaining binding,41%
Cc1cc(-c2ccc3ccccc3c2)nnc1NCCN1CCN(C)CC1,"Alpha-2A adrenergic receptor (ADRA2A, Homo sapiens, UniProt P08913)",antagonist,,concentration not given,,antagonist activity,negative
CC(=O)N[C@@H](CCC(N)=O)C(=O)N[C@@H](CC1CCCCC1)C(=O)N[C@@H](CNC(=O)CCl)C(=O)N[C@@H](CC(C)C)C(=O)N[C@@H](Cc1ccccc1)C(=O)O,"Beta sliding clamp (Escherichia coli, UniProt P0A988)","binding, isothermal titration calorimetry",,22 °C,,ΔG,-9.31 kcal/mol
CC(C)CC(O)(CC(C)C)c1cn(C(=O)N2CCCC2)nn1,"Dipeptidyl peptidase 2 (Dpp7, Mus musculus, UniProt Q9ET22)","probe labelling, inhibitor, competitive ABPP-SILAC, item: Dpp7",mouse T cells,"concentration not given, 4 h, single peptide","baseline: treated over DMSO cells, lower = stronger inhibition",SILAC activity ratio,1.38 and 1.22 and 1.18 and 1.12 and 1
N[C@H](C(=O)N1CCCC1)C1CCN(c2nccc3c(-c4ncc(Cl)cc4Cl)cccc23)CC1,"Protein-arginine deiminase type-3 (PADI3, Homo sapiens, UniProt Q9ULW8)",enzyme activity,,"0.01573 µM, together with: Ca2+ 0.25 mM",,kcat,0.0959 s⁻¹ and 0.103 s⁻¹
CS(C)(=O)=Nc1ccc(-c2ccc(-c3nc4cc(O[C@@H]5CO[C@H]6[C@@H]5OC[C@H]6O)[nH]c4cc3F)cc2)cc1,"Phosphatidylinositol 4-phosphate 5-kinase type-1 alpha (PIP5K1A, Homo sapiens, UniProt Q99755)","enzyme activity, inhibitor",,10 µM,,inhibition,-3%
COc1ccccc1-c1n[nH]c2nc(N[C@H]3CC[C@H](NS(=O)(=O)CC(C)C)CC3)ncc12,"cdc2-related kinase 12 (Leishmania donovani, UniProt A0A3S7WQK2)","competitor, bead pull-down competition",Leishmania donovani extract,2 µM,baseline: vehicle,remaining binding,14%
CC(C)[C@H]1NC(=O)C[C@H]2/C=C/CCSSC[C@@H](NC1=O)C(=O)N[C@H](Cc1cccc3ccccc13)C(=O)NCC(=O)O2,"Serine/threonine-protein kinase Nek7 (NEK7, Homo sapiens, UniProt Q8TDX7)","enzyme activity, inhibitor",,10 µM,,inhibition,0.256%
CCCC(=O)CC(=O)N[C@H]1CCOC1=O,lasR,"reporter gene, agonist",Pseudomonas aeruginosa PAO-JP2,"100 µM, plasI-LVAgfp reporter",baseline: OdDHL at same concentration,agonist activity,4%
[CH3][Ti+2][O]C(=O)c1ccc([S][Au][PH](c2ccccc2)(c2ccccc2)c2ccccc2)cc1.c1cc[cH-]c1.c1cc[cH-]c1,"Protein kinase C gamma type (PRKCG, Homo sapiens, UniProt P05129)","inhibitor, radiometric HotSpot",,"1 µM, together with: 10 µM ATP",baseline: DMSO vehicle,remaining kinase activity,135% and 132%
O=C(Cc1ccccc1F)N[C@H]1CCOC1=O,sdiA,,,,,Emax,104%
CC(C)C[C@@H]1NC(=O)[C@H](C(C)C)NC(=O)[C@H](CCC(=O)O)NC(=O)CNC(=O)[C@H]([C@@H](C)O)NC(=O)[C@H](CCC(=O)O)NC(=O)[C@H](CCC(=O)O)NC(=O)[C@H](CC(=O)O)NC(=O)[C@H](C(C)C)NC(=O)[C@H]([C@@H](C)O)NC(=O)CNC(=O)[C@H](CC(=O)O)NC(=O)[C@@H]2CCCN2C1=O,KEAP1,"Keap1-Nrf2 binding, inhibitor, competitive FP",,"25 µM, 30 min, together with: Nrf2 peptide probe",lower = stronger inhibition,fluorescence polarization,0.189 a.u. and -0.0547 a.u.
Cn1ncc2c(Nc3ccccc3Cl)nc(Nc3ccccc3Cl)nc21,"Tumor susceptibility gene 101 protein (Homo sapiens, UniProt Q99816)",thermal stability,,800 µM,,ΔTm,6 °C
